Measured values pooled from the literature.
Parts stem from different laboratories: compare values within a part only. Numbers after ± are the reported error. Values after ≈ are worked out from the molar mass of the structure shown.

Block 1
Organism: SARS-CoV-2 Wuhan spike VSV pseudovirus
Effect on: pseudovirus entry
Concentration: concentration not given
`CCOC(=O)c1c(CN(CC)CC)n(-c2ccccc2)c2ccc(O)cc12` gave an inhibition of 42%.
For `Cc1c(C(=O)OCC(=O)NC(=O)NCc2ccco2)oc2c1ccc1ccccc12`, the inhibition was 41%.
For `CC(C)Nc1ncc(CN2CCC(c3ccnc(-c4ccc5c(c4)OCO5)c3)C2)cn1` (stereo not drawn), the inhibition was 37%.
The inhibition of `COCCCN1CCn2c(nc3cc(NC(=O)NC4CCCCC4)ccc32)C1` is reported as 41%.
`Cc1cc(C)n(CC(C)NCC(=O)NC(C)C)n1` (stereo not drawn) has an inhibition of 37%.
`Cc1cccc(-c2nnc(-c3nc(NCCCN4CCCC4=O)c4ccccc4n3)o2)c1` has an inhibition of 46%.
For `Cc1nc(-c2cccc(Cl)c2)n(CC(=O)NCc2ccc3c(c2)OCO3)c(=O)c1CCO`, the inhibition was 39%.
`Cn1ccnc1C(Nc1ncnc2c1cnn2-c1ccc(F)cc1)c1ccccc1` (stereo not drawn) gave an inhibition of 41%.
`CCN(c1ccc2sc(C(=O)Nc3ccc(C)c(Cl)c3)cc2c1)S(C)(=O)=O` gave an inhibition of 50%.
`CC(C)CC(=O)N1C2CCC1c1cnc(-c3ccc(F)cc3)nc1C2` (stereo not drawn) gave an inhibition of 45%.
For `Nc1nc(-c2ccc3c(c2)OCO3)cs1`, the inhibition was 36%.
For `CCN(Cc1ccccc1)S(=O)(=O)c1ccc(C(=O)Nc2nc3c(s2)CN(C)CC3)cc1`, the inhibition was 47%.
With `Cc1oc2ncnc(N3CCC(C(=O)NCCc4cccs4)CC3)c2c1C` the inhibition was 38%.
`c1nc(N2CCc3[nH]cnc3C2)c2cc[nH]c2n1` has an inhibition of 43%.
`Cc1ccc(C2NC(=O)N(CC(=O)NC3CCCCC3)C3=C2C(=O)OC3)cc1` (stereo not drawn) gave an inhibition of 38%.
With `Cc1ccc(CS(=O)(=O)c2ncc(Cl)c(C(=O)N3CCN(C)CC3)n2)cc1` the inhibition was 41%.
`C=C1C(=O)O[C@H]2[C@H]1CC/C(C)=C\CC[C@@]1(C)O[C@@H]21` has an inhibition of 42%.
For `Cc1cc(Sc2ccc3c(c2)OCCCO3)n2ncnc2c1`, the inhibition was 40%.
For `CCOc1ccc(CCNc2ncnc3c2nc2n3CCCCC2)cc1OCC`, the inhibition was 43%.
With `Cc1cccc(N2CCN(C(=O)c3cc4occc4c(Nc4ccc(F)cc4)n3)CC2)c1C` the inhibition was 40%.
For `CC(C)c1cc(C(=O)NCc2ccccc2CN2CCCC2=O)n(C)n1`, the inhibition was 43%.
The inhibition of `CCO[C@H]1COC[C@@H]1NC(=O)c1ccc2c(c1)nnn2C` is reported as 42%.
The inhibition of `COc1nccnc1-c1ccnc2[nH]ccc12` is reported as 43%.
`COc1cccc(Oc2ccc(NC(=O)c3cc4cc(Br)ccc4o3)cn2)c1` gave an inhibition of 37%.
`COc1ccc(C(CC(=O)N2CCN(c3cnccn3)CC2)c2ccccc2)cc1` (stereo not drawn) gave an inhibition of 38%.

Mixed results
rep nsp14: Replicase polyprotein 1ab, nsp14 (rep, Severe acute respiratory syndrome coronavirus 2, UniProt P0DTD1)
rep nsp12 RdRp: Replicase polyprotein 1ab, nsp12 RdRp (rep, Severe acute respiratory syndrome coronavirus 2, UniProt P0DTD1)
`CC(C)(C)[C@H](NC(=O)C(F)(F)F)C(=O)N1C[C@H]2[C@@H]([C@H]1C(=O)N[C@H](C#N)C[C@@H]1CCNC1=O)C2(C)C` has an EC50 of 8 nM (SARS-CoV-2; viral replication, replicon; A5328S Mpro cleavage-site mutant).
`NNC(=O)c1ccncc1` has an MIC of 32 µg/mL (≈ 233 µM) (Mycobacterium tuberculosis; Alamar blue; 22/22, SIRE and linezolid resistant; 21 days, 37 °C).
The IC50 of `CC#CCn1c(N2CCC[C@@H](N)C2)nc2c1c(=O)n(Cc1nc(C)c3ccccc3n1)c(=O)n2C` is reported as 2270 nM (SARS-CoV-2; viral replication; Vero E6, B.1.617 (Kappa); 48 h).
With `N#C[C@@]1(n2ccc(N)nc2=O)O[C@H](CO)[C@@H](O)[C@H]1O` the EC90 was 3000 ± 200 nM (SARS-CoV-2; viral replication; Vero, Beta).
The ΔTm of `Cn1c[n+]([C@@H]2O[C@H](COP(=O)(O)OP(=O)([O-])OP(=O)(O)OC[C@H]3O[C@@H](n4cnc5c(=O)[nH]c(N)nc54)[C@H](O)[C@@H]3O)[C@@H](O)[C@H]2O)c2nc(N)[nH]c(=O)c21` is reported as 0.7 °C (rep nsp14; thermal shift; 20 µM).
`CCC(CC)COC(=O)[C@H](C)N[P@](=O)(OC[C@H]1O[C@@](C#N)(c2ccc3c(N)ncnn23)[C@H](O)[C@@H]1O)Oc1ccccc1` has an EC50 of 900 nM (SARS-CoV-2; viral replication; Vero C1008, B.1.1.7).
`CC[C@H](C)[C@@H]1NC(=O)[C@H](CCC(N)=O)NC(=O)[C@H](CCC(=O)O)NC(=O)[C@H](CCCNC(=N)N)NC(=O)[C@@H]2CCCN2C(=O)[C@H](CCCNC(=N)N)NC(=O)[C@H](CCCNC(=N)N)NC(=O)[C@H](Cc2ccc(O)cc2)NC(=O)CSC[C@@H](C(=O)NCC(N)=O)NC(=O)[C@H](Cc2ccccc2)NC(=O)[C@H](C(C)C)NC(=O)[C@H](Cc2c[nH]c3ccccc23)NC(=O)[C@H](CC(C)C)NC(=O)[C@H](CO)NC(=O)CNC(=O)[C@H]([C@@H](C)CC)NC(=O)[C@H]([C@@H](C)CC)NC1=O` has a Kd of 39 nM (SARS-CoV-2 spike protein Alpha variant; binding).
With `O=C(NC1CCN(c2ncnc3[nH]cnc23)CC1)c1cccc(S(=O)(=O)N2CCCC2)c1` the inhibition was 33.6% (rep nsp14; NSP14 enzyme activity, inhibitor; 3.125 µM).
For `CCCCCCC#Cc1cncc(-c2nnc(SCc3ccc(Cl)cc3)n2C)c1`, the IC50 was 5800 ± 612 nM (Mycobacterium tuberculosis; Erdman cydA mutant).
The EC90 of `CC(C)Nc1nc2cc(Cl)c(Cl)cc2n1[C@H]1O[C@@H](CO)[C@H](O)[C@@H]1O` is reported as 12200 ± 330 nM (SARS-CoV-2; viral replication; Vero C1008, Omicron BA.1; 48 h, reduction of infectious virus).
The IC50 of `CCCCCCCCCCC[C@@H](C[C@@H]1OC(=O)[C@H]1CCCCCC)OC(=O)[C@H](CC(C)C)NC=O` is reported as ~500000 nM (Severe acute respiratory syndrome coronavirus 2; viral replication, inhibitor; Vero C1008).
`O=[N+]([O-])c1cn2c(n1)OC[C@@H](OCc1ccc(OC(F)(F)F)cc1)C2` has an IC50 of > 50000 nM (Mycobacterium tuberculosis; MABA; Erdman M3 FbiC P367S mutant).
For `NC(=O)c1ccc(-c2nc(-c3ccc4c(c3)OCCO4)c(-c3ccccn3)[nH]2)cc1`, the BLI response was -0.02 nm (rep nsp12 RdRp; binding, biolayer interferometry; concentration not given).
For `C1CC2C3C4C5CCC4C24CNCC54C13.Cl`, the inhibition was 0% (Matrix protein 2 (Influenza A virus, UniProt P0DOF5, S31N); concentration not given, pH 5.5, cell-based).
`CC(C)[C@H](NC(=O)[C@H](CCCNC(=N)N)NC(=O)N[C@@H](Cc1ccccc1)C(=O)O)C(=O)N[C@H](C=O)CCCNC(=N)N` gave an EC50 of 35400 nM (SARS-CoV-2; viral replication; Vero C1008, B.1.1.7).
The EC90 of `O=c1[nH]cnc2c([C@@H]3N[C@H](CO)[C@@H](O)[C@H]3O)c[nH]c12` is reported as 2020 ± 70 nM (SARS-CoV-2; viral replication; Vero C1008, Omicron BA.1; 48 h, reduction of infectious virus).
For `N[C@@H](CC(=O)N1CCn2c(nnc2C(F)(F)F)C1)Cc1cc(F)c(F)cc1F`, the IC50 was 1650 nM (SARS-CoV-2; viral replication; Vero E6, B.1.351 (Beta); 48 h).
`CC(C)(O)CNc1ncc(-c2ccnc(Nc3ccnc(Cl)c3)n2)c(CC2CC2)n1` gave an IC50 of < 600 nM (SARS-CoV-2; Vero C1008).
The EC50 of `O=C1c2c(O)c(=O)ccn2N([C@@H]2c3ccccc3SCc3c2ccc(F)c3F)[C@@H]2COCCN12` is reported as 22.3 ± 3.49 nM (influenza A(H1N1)pdm09 virus; rg-A/California/04/2009 PA-I38T).
The MIC of `CCc1cc(=O)c2c(OCC(O)CN3CCCCC3)c3ccoc3c(OC)c2o1` (stereo not drawn) is reported as 32 µg/mL (≈ 79.7 µM) (Mycobacterium tuberculosis; Alamar blue; 22/22, SIRE and linezolid resistant; 21 days, 37 °C).
For `CCC(CC)[C@H](NC(C)=O)[C@@H]1[C@H](O)[C@@H](C(=O)O)C[C@H]1N=C(N)N`, the IC50 was 2.7 ± 0.2 nM (neuraminidase (Influenza B virus, UniProt A0A1S5RAG6, D197N)).
For `CC(C)(C)[C@H](NC(=O)C(F)(F)F)C(=O)N1C[C@H]2[C@@H]([C@H]1C(=O)N[C@H](C#N)C[C@@H]1CCNC1=O)C2(C)C`, the inhibition was 99.9% (SARS-CoV-2; viral replication; VeroE6/TMPRSS2, Omicron variants; 2.7 µM).
The inhibition of `CC(N)C12CC3CC(CC1C3)C2` (stereo not drawn) is reported as 0% (Matrix protein 2 (Influenza A virus, UniProt P0DOF5, V27A); concentration not given, pH 5.5, cell-based).
For `CCC(CC)COC(=O)[C@H](C)N[P@](=O)(OC[C@H]1O[C@@](C#N)(c2ccc3c(N)ncnn23)[C@H](O)[C@@H]1O)Oc1ccccc1`, the EC50 was 200 ± 100 nM (SARS-CoV-2; viral replication; Calu-3, Gamma).
With `CC(C)=O.COC(=O)N[C@H](C(=O)N1CC2(CC2)C[C@H]1c1ncc(-c2ccc3c(c2)C(F)(F)c2cc(-c4ccc5nc([C@@H]6[C@H]7CC[C@H](C7)N6C(=O)[C@@H](NC(=O)OC)C(C)C)[nH]c5c4)ccc2-3)[nH]1)C(C)C` the BLI response was 0.03 nm (rep nsp12 RdRp; binding, biolayer interferometry; concentration not given).
With `CN(C)CCn1c(C(=O)N2CCN(c3ccccc3Cl)CC2)c(C(c2ccc(O)cc2)c2ccc(O)cc2)c2ccccc21` the EC90 was ~107 nM (SARS-CoV-2; viral replication; 293T-ACE2, USA-WA1/2020).

A few entries again (block 1):
`Cc1cc(C)n(CC(C)NCC(=O)NC(C)C)n1` (stereo not drawn) has an inhibition of 37%.
`COc1ccc(C(CC(=O)N2CCN(c3cnccn3)CC2)c2ccccc2)cc1` (stereo not drawn) gave an inhibition of 38%.
For `CC(C)Nc1ncc(CN2CCC(c3ccnc(-c4ccc5c(c4)OCO5)c3)C2)cn1` (stereo not drawn), the inhibition was 37%.
